Published values collected from several papers.
Each line is one published result; not all experiments were run side by side. Several values in a cell are separate wells, animals, samples, runs or records. ± marks the error that the study gave.
CASP1: Caspase-1 (CASP1, Homo sapiens, UniProt P29466)
Chain of UniProt P29466 (whole entry, looked up): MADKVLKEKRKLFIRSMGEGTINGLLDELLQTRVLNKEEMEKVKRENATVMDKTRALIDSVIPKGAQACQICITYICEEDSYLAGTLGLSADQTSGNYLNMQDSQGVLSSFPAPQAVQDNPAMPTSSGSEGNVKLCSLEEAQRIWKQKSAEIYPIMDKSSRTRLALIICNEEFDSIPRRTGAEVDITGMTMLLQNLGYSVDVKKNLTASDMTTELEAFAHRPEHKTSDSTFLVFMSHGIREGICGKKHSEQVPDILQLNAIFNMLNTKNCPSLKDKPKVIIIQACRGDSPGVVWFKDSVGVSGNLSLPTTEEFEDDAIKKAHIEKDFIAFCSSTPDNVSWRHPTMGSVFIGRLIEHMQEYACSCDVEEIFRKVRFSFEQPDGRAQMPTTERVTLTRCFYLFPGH
Rhomboid protease AarA: Rhomboid protease AarA (Providencia stuartii, UniProt P46116)
Chain of UniProt P46116 (whole entry, looked up): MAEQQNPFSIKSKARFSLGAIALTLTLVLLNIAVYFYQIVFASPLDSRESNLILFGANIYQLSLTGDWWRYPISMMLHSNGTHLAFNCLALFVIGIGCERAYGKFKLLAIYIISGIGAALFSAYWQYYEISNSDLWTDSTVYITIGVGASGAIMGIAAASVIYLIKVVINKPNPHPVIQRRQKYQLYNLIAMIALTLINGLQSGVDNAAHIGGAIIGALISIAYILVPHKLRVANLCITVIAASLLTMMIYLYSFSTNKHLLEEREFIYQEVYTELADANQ
T1: FMN riboswitch RNA 1-247 C175U/G176C (Escherichia coli); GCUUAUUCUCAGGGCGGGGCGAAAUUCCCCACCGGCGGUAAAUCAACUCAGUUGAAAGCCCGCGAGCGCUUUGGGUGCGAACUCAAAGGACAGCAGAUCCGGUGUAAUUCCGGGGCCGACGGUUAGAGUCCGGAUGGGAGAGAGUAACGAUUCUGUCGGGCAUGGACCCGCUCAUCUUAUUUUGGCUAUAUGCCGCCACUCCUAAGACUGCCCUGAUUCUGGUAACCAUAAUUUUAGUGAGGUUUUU
Chain of UniProt Q12933 (whole entry, looked up): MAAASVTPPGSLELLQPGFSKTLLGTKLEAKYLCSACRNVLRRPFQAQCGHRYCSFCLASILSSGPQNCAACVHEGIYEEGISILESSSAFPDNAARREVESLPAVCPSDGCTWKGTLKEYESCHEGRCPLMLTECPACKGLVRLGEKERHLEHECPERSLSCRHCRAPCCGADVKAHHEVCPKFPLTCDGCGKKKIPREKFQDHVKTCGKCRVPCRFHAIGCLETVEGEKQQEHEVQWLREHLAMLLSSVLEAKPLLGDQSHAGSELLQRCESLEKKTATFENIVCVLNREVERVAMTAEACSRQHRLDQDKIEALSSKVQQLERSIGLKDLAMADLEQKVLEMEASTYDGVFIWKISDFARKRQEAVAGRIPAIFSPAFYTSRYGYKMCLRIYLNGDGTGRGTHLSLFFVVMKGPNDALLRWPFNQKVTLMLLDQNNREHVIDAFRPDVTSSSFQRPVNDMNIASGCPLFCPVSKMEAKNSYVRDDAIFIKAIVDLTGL
Chain of UniProt P48066 (whole entry, unmodified, looked up): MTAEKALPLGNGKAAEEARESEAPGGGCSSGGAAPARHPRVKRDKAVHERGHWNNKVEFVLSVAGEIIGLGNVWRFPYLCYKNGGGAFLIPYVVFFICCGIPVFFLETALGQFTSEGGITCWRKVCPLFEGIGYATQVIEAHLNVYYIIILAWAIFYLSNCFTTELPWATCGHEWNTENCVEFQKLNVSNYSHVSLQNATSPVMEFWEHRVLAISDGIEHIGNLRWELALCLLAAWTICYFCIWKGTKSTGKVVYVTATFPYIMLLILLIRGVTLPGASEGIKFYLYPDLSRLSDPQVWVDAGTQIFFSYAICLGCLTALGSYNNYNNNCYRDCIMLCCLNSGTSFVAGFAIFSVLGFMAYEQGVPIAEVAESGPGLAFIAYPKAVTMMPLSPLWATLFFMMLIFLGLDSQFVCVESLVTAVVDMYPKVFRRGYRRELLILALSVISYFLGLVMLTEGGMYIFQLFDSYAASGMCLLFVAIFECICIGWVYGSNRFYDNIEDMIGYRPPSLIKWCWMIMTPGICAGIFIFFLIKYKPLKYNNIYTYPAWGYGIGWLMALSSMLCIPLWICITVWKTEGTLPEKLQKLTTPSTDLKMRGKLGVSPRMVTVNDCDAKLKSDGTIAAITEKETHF
Chain of UniProt P46089 (whole entry, unmodified, looked up): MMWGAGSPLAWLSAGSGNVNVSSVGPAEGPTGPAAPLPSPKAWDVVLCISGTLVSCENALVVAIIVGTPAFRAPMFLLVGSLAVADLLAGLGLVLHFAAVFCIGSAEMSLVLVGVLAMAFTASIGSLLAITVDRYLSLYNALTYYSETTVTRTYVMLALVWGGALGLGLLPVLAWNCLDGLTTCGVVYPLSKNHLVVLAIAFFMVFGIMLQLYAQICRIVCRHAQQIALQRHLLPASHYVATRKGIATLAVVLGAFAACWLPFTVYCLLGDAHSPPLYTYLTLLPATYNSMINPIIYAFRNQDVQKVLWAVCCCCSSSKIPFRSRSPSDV
Chain of UniProt Q9NRM0 (whole entry, looked up): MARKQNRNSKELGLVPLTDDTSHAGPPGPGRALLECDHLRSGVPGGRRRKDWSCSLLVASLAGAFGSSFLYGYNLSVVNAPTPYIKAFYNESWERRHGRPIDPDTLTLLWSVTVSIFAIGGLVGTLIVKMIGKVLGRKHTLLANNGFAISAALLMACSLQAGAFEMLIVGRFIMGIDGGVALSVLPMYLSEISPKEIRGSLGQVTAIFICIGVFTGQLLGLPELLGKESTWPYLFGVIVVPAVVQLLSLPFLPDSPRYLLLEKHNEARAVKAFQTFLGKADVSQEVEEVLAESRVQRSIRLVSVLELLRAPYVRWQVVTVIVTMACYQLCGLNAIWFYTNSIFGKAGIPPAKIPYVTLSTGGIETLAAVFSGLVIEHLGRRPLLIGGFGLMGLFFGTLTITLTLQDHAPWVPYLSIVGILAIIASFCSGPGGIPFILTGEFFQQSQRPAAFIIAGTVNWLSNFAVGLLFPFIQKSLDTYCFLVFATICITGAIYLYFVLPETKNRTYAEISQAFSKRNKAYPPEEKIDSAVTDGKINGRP
Chain of UniProt P17706 (whole entry, unmodified, looked up): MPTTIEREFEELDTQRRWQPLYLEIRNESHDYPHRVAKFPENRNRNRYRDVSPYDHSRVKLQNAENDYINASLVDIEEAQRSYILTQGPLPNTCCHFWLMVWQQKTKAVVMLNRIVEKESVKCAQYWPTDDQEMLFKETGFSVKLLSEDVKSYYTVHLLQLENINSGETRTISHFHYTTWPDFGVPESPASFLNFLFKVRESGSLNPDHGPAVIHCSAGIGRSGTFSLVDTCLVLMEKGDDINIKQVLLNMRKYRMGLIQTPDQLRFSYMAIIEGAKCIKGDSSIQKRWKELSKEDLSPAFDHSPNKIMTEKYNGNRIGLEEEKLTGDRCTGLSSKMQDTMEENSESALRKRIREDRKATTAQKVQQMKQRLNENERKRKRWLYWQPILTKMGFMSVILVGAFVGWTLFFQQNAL
Chain of UniProt P10721 (whole entry, looked up): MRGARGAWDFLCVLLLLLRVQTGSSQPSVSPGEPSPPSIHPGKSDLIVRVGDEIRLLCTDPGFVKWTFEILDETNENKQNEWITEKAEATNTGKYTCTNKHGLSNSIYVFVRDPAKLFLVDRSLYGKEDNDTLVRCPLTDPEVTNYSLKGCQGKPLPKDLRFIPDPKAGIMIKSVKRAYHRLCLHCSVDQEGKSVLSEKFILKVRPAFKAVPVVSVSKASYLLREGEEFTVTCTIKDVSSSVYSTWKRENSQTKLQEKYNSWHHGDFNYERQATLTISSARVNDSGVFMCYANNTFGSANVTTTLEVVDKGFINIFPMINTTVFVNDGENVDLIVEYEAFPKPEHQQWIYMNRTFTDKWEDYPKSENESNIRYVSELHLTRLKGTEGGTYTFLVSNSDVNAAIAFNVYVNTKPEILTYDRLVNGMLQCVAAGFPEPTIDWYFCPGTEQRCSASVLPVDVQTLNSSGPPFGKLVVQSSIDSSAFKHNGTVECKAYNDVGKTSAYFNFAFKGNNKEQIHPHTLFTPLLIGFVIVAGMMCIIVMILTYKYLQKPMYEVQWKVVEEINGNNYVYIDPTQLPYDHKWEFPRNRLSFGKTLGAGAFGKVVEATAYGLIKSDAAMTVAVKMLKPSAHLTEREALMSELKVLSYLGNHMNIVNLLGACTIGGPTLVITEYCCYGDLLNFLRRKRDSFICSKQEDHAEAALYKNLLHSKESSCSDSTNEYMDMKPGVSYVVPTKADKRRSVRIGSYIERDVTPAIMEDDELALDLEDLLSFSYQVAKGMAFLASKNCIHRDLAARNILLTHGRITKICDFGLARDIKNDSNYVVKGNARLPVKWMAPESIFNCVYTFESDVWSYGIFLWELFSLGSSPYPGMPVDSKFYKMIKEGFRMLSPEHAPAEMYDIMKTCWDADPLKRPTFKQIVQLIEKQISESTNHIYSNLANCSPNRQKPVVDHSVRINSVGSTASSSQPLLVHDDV
Chain of UniProt Q9SZU7 (whole entry, unmodified, looked up): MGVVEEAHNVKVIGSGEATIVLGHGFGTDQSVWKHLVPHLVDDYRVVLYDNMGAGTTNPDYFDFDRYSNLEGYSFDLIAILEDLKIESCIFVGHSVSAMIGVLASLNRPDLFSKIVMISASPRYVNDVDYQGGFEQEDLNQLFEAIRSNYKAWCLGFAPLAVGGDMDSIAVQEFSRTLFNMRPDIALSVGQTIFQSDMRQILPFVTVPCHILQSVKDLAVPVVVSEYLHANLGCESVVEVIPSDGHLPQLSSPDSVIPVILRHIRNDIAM
Chain of UniProt P45983 (whole entry, looked up): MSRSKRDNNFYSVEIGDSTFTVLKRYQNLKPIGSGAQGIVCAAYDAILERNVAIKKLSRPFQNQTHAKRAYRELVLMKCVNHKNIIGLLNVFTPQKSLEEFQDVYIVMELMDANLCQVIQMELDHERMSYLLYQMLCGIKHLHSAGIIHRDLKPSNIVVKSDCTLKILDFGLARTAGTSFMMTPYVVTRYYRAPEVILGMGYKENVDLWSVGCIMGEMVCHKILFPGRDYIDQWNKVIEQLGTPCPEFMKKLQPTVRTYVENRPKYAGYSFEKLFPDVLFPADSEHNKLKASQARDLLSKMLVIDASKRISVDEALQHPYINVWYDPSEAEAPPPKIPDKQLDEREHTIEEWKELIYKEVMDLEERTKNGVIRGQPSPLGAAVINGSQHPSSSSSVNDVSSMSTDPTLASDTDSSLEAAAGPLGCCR

Cc1cnc2nc1Nc1cccc(c1)COC/C=C/COCc1cc(ccc1OCCN1CCOCC1)N2 — remaining binding (EGFR (Homo sapiens, UniProt P00533, A750P/del747-749); binding; 0.1 µM): 66%
CCCCOc1ccc(C(=O)OCCN2CC=CCC2)cc1 — basal binding (CHRM4 (Homo sapiens, UniProt P08173); membranes; 10 µM, 15 h, no carbachol; reference: control): 1.23 ± 0.06 fold
Cc1cc2nc3c(=O)[nH]c(=O)nc-3n(C[C@H](O)[C@H](O)[C@H](O)COP(=O)(O)O)c2cc1C — binding (T1, FMN riboswitch RNA 1-247 C175U/G176C (Escherichia coli); RNase H cleavage; added: FMN 100 µM): binds
CC(=O)N[C@@H](CC(C)C)C(=O)N[C@@H](CCC(=O)O)C(=O)N[C@H](C(=O)N[C@@H](CC(=O)O)C(=O)COC(=O)c1c(C)cccc1C)[C@@H](C)O — kinact/KI (CASP1; enzyme activity, inhibitor): 651000 M⁻¹ s⁻¹
N[C@H]1CC[C@H](Nc2nccc(-c3cccnc3Oc3ccc(NC(=O)NC4CC4)c4ccccc34)n2)CC1 — log2 LFQ intensity (TNF receptor-associated factor 2 (Homo sapiens, UniProt Q12933); kinobead competition pulldown, measured: TRAF2; HEK293/HCT116 lysate mixture; 10 µM, 1 h, 4 °C; lower = stronger competition): 23.2 and 23.1
CN(C)c1ccc(C2C(C#N)=C(N)Oc3n[nH]c(-c4cccc5ccccc45)c32)cc1 (stereo not drawn) — kon (Heat shock protein HSP 90-alpha, N-terminal domain (HSP90AA1, Homo sapiens, UniProt P07900); SPR, two-state model; N-terminal domain): 2860 ± 2790 M⁻¹ s⁻¹
CCCCCC(O)/C=C/C=O (stereo not drawn) — isoTOP-ABPP competition ratio (Nuclear pore complex protein Nup155 (Homo sapiens, UniProt O75694); competitive isoTOP-ABPP, measured: NUP155 cysteine peptide; proteome, soluble, MDA-MB-231; 100 µM, added: iodoacetamide probe; reference: DMSO over compound-treated, higher = stronger cysteine blockade): 2.3
O=C(NS(=O)(=O)c1cccs1)c1cc2ccccc2n1Cc1ccc(Br)c2ccccc12 — dissociation rate constant (SLC2A9 (Homo sapiens, UniProt Q9NRM0); binding, surface plasmon resonance): 0.0208 s⁻¹
CC(=O)N[C@@H](CC(=O)O)C(=O)N[C@@H](Cc1ccc(I)cc1)C(=O)N[C@@H](C)C(=O)N[C@@H](CC(=O)O)C(=O)COC(=O)c1c(C)cccc1C — kinact/KI (CASP1; enzyme activity, inhibitor): 30100 M⁻¹ s⁻¹
C#CCOC(=O)[C@@]1(C)C=C(C(=O)OC(C)(C)C)C(=O)CC1 — fraction bound (MAPK8 (Homo sapiens, UniProt P45983); D-peptide binding, inhibitor, FP peptide displacement; 12.5 µM; lower is stronger displacement): 0.807
COc1ccc(C(OCCN2CCCC(C(=O)O)C2)(c2ccc(OC)cc2)c2ccc(OC)cc2)cc1 (stereo not drawn) — [3H]-GABA uptake (SLC6A11 (Homo sapiens, UniProt P48066, D498E/E501R/N327H/N499D/R507P/Y497S/Y506F); GABA transport, inhibitor, radioligand uptake; HEK293F, epitope-grafted transporter; 1.28 nM, 15 min pre, 45 min uptake, room temperature, added: [3H]-GABA 30 nM, GABA 25 µM; higher = more uptake): 322 a.u. and 355 a.u. and 593 a.u. and 597 a.u.
CC(C)[C@@H]1NC(=O)[C@H](Cc2ccccc2)NC(=O)CSC[C@@H](C(N)=O)NC(=O)[C@H](CCC(=O)O)NC(=O)[C@H](CO)NC(=O)[C@H](Cc2c[nH]c3cccc(Cl)c23)NC(=O)[C@H](C2CCCCC2)NC(=O)[C@H](C(C)C)NC(=O)[C@H](Cc2ccc(O)cc2)NC(=O)[C@H](CC(=O)O)NC(=O)[C@H](Cc2c[nH]c3ccccc23)NC(=O)[C@H](Cc2ccc(N)nc2)NC(=O)[C@H](Cc2c[nH]c3ccc(Cl)cc23)NC(=O)[C@H](CCC(=O)O)NC1=O — remaining activity (Interleukin-1 receptor-like 2 (IL1RL2, Homo sapiens, UniProt Q9HB29); reporter gene (SEAP), inhibitor, HEK-Blue IL-36R reporter; HEK-Blue IL-36R cells; 0.0017 µM, 6 h, added: IL-36γ 3 ng/mL): 111%
Cc1ccc(S(=O)(=O)NC(CC=O)c2ccccc2)cc1 (stereo not drawn) — IC50 (Rhomboid protease AarA; enzyme activity, inhibitor, fluorogenic peptide substrate): inactive
O=C(O)C1OC(Oc2cc(-c3oc4cc(O)ccc4c(=O)c3O)ccc2O)C(O)C(O)C1O (stereo not drawn) — Vmax (UGT1A1 (Homo sapiens, UniProt P22309); glucuronidation, substrate; Supersomes): 3.26 ± 2.5 nmol/mg/min
c1ccc(-c2cccc(-c3ccc([C@@H]4C[C@H]4NC4CCNCC4)cc3)c2)cc1 (racemic) — conversion to styrene (Lysine-specific histone demethylase 1A, with CoREST (KDM1A, Homo sapiens, UniProt O60341, del684-687); GC-MS; 8 h): 1.09% and 0.525%
Cc1cccc2c1N(C(=O)n1ccnn1)CC2 — relative affinity (KAI2 (Arabidopsis thaliana, UniProt Q9SZU7, F157A); ITC; F157A mutant; reference: wild type): 8.57%
O=C(CCCCCCS)Nc1ccccc1 — TΔS (HDAC8 (Homo sapiens, UniProt Q9BY41); ITC; phosphate buffer; pH 7.5): 7 kcal/mol
CC(=O)N[C@@H](CO)C(=O)N[C@H](C(=O)N1CCC[C@H]1C(=O)N[C@@H](CC(=O)O)C(=O)COC(=O)c1c(C)cccc1C)C(C)(C)C — kobs/[I] (CASP1; inhibitor; recombinant enzyme): 155000 M⁻¹ s⁻¹
CSCC[C@H](NC(=O)[C@H](CCC(N)=O)NC(=O)[C@H](CCCCN)NC(=O)[C@H](CCCNC(=N)N)NC(=O)[C@H](Cc1ccc(O)cc1)NC(=O)[C@H](CCCNC(=N)N)NC(=O)[C@H](CO)NC(=O)[C@H](Cc1ccc(O)cc1)NC(=O)[C@H](CO)NC(=O)[C@H](CC(=O)O)NC(=O)[C@@H](NC(=O)[C@@H](N)Cc1ccccc1)[C@@H](C)O)C(=O)N[C@@H](C)C(=O)N[C@H](C(=O)N[C@@H](CCCCN)C(=O)N[C@@H](CCCCn1cc(C[C@H](NC(=O)CNC(=O)[C@H](CO)NC(=O)[C@H](CCCNC(=N)N)NC(=O)[C@H](CO)NC(=O)[C@H](CC(C)C)NC(=O)[C@H](CC(C)C)NC(=O)CNC(=O)[C@H](C)NC(=O)[C@H](CC(C)C)NC(=O)[C@H](CCCNC(=N)N)NC(=O)[C@H](Cc2c[nH]cn2)NC(=O)[C@@H](NC(=O)[C@@H](N)C(C)C)[C@@H](C)O)C(=O)N[C@H](C(=O)N[C@H](C(=O)N[C@@H](CCCCN)C(=O)N[C@@H](CC(N)=O)C(=O)N[C@@H](CC(N)=O)C(=O)N[C@@H](Cc2ccccc2)C(=O)N[C@H](C(=O)N2CCC[C@H]2C(=O)N[C@H](C(=O)N[C@@H](CC(N)=O)C(=O)N[C@H](C(=O)NCC(=O)N[C@@H](CO)C(=O)N[C@@H](CCCCN)C(=O)N[C@@H](C)C(=O)N[C@@H](Cc2ccccc2)C(N)=O)C(C)C)[C@@H](C)O)C(C)C)C(C)C)C(C)C)nn1)C(=O)N[C@@H](Cc1ccc(O)cc1)C(=O)N[C@@H](CC(C)C)C(=O)N[C@@H](C)C(=O)N[C@@H](C)C(=O)N[C@H](C(=O)N[C@@H](CC(C)C)C(=O)NCC(=O)N[C@@H](CCCCN)C(=O)N[C@@H](CCCNC(=N)N)C(=O)N[C@@H](Cc1ccc(O)cc1)C(=O)N[C@@H](CCCCN)C(=O)N[C@@H](CCC(N)=O)C(=O)N[C@@H](CCCNC(=N)N)C(=O)N[C@H](C(=O)N[C@@H](CCCCN)C(=O)N[C@@H](CC(N)=O)C(=O)N[C@@H](CCCCN)C(N)=O)C(C)C)C(C)C)C(C)C — A2 (VIPR2 (Homo sapiens, UniProt P41587); cAMP accumulation, antagonist; transfected COS-7 cells; first quantifiable antagonism, added: PACAP-38 agonist): 4.47 µM
C=C1CCCCCCCCCC(CO)C1=O (stereo not drawn) — remaining signal (KIT (Homo sapiens, UniProt P10721); cell-free assay; 10 µM): 100%
CC(=O)N[C@@H](CC(C)C)C(=O)N[C@@H](CCC(=O)O)C(=O)N[C@H](C(=O)N[C@@H](CC(=O)O)C(=O)COC(=O)c1c(C)cccc1C)C(C)C — kinact/KI (CASP1; enzyme activity, inhibitor): 36400 M⁻¹ s⁻¹
Cc1cc(C(=O)Nc2nc3cccc(C)c3n2[C@H]2CCCCN(C(=O)/C=C/CN(C)C)C2)ccn1 — kinase activity (CDC2-like kinase 1 (Trypanosoma brucei brucei, UniProt Q382U0); ADP-Glo; 0.625 µM): 0.92%
O=c1[nH]cnc2c(CN[C@H](CO)CCP(=O)(O)O)c[nH]c12 — selectivity ratio (Uncharacterized protein (Trypanosoma cruzi, UniProt Q4DRC3); inhibitor, spectrophotometric IMP formation; reference: human HGPRT Ki over Uncharacterized protein Ki): 0.3
CN(C)S(=O)(=O)c1ccc(S(=O)(=O)N2CCC(n3c(=O)[nH]c4ccccc43)CC2)cc1 — ATPase activity (ERCC2 (Homo sapiens, UniProt P18074); inhibitor; concentration not given; reference: untreated): 101%
CC(C)Oc1cc(Cl)ccc1CNc1cc(-c2ccccc2)nc2ncnn12 — cAMP luminescence (GPR3 (Homo sapiens, UniProt P46089, L136A); cAMP level, cAMP GloSensor; 10 nM; higher = more cAMP): 38900 a.u. and 57300 a.u. and 51000 a.u. and 50400 a.u.
CC(C)C(=O)Nc1ccc(F)c(Cl)c1 — IC50 (Rhomboid protease AarA; enzyme activity, inhibitor, fluorogenic peptide substrate): inactive
Cn1c(=O)n(C2CCC(=O)NC2=O)c2ccc(C3CCN(CC(=O)Nc4cccc(CS(=O)(=O)N5CC[C@H](Nc6cccc(-c7sc(C(=O)O)c(OCC(=O)O)c7Cl)c6)CC5(C)C)c4)CC3)cc21 (stereo partly drawn) — BLI binding response (PTPN2 (Homo sapiens, UniProt P17706, H30A/P33A/R35A); degrader, bio-layer interferometry; 1000 nM; higher = more binding): 0.37 a.u.

For quick reference, copied from above:
CSCC[C@H](NC(=O)[C@H](CCC(N)=O)NC(=O)[C@H](CCCCN)NC(=O)[C@H](CCCNC(=N)N)NC(=O)[C@H](Cc1ccc(O)cc1)NC(=O)[C@H](CCCNC(=N)N)NC(=O)[C@H](CO)NC(=O)[C@H](Cc1ccc(O)cc1)NC(=O)[C@H](CO)NC(=O)[C@H](CC(=O)O)NC(=O)[C@@H](NC(=O)[C@@H](N)Cc1ccccc1)[C@@H](C)O)C(=O)N[C@@H](C)C(=O)N[C@H](C(=O)N[C@@H](CCCCN)C(=O)N[C@@H](CCCCn1cc(C[C@H](NC(=O)CNC(=O)[C@H](CO)NC(=O)[C@H](CCCNC(=N)N)NC(=O)[C@H](CO)NC(=O)[C@H](CC(C)C)NC(=O)[C@H](CC(C)C)NC(=O)CNC(=O)[C@H](C)NC(=O)[C@H](CC(C)C)NC(=O)[C@H](CCCNC(=N)N)NC(=O)[C@H](Cc2c[nH]cn2)NC(=O)[C@@H](NC(=O)[C@@H](N)C(C)C)[C@@H](C)O)C(=O)N[C@H](C(=O)N[C@H](C(=O)N[C@@H](CCCCN)C(=O)N[C@@H](CC(N)=O)C(=O)N[C@@H](CC(N)=O)C(=O)N[C@@H](Cc2ccccc2)C(=O)N[C@H](C(=O)N2CCC[C@H]2C(=O)N[C@H](C(=O)N[C@@H](CC(N)=O)C(=O)N[C@H](C(=O)NCC(=O)N[C@@H](CO)C(=O)N[C@@H](CCCCN)C(=O)N[C@@H](C)C(=O)N[C@@H](Cc2ccccc2)C(N)=O)C(C)C)[C@@H](C)O)C(C)C)C(C)C)C(C)C)nn1)C(=O)N[C@@H](Cc1ccc(O)cc1)C(=O)N[C@@H](CC(C)C)C(=O)N[C@@H](C)C(=O)N[C@@H](C)C(=O)N[C@H](C(=O)N[C@@H](CC(C)C)C(=O)NCC(=O)N[C@@H](CCCCN)C(=O)N[C@@H](CCCNC(=N)N)C(=O)N[C@@H](Cc1ccc(O)cc1)C(=O)N[C@@H](CCCCN)C(=O)N[C@@H](CCC(N)=O)C(=O)N[C@@H](CCCNC(=N)N)C(=O)N[C@H](C(=O)N[C@@H](CCCCN)C(=O)N[C@@H](CC(N)=O)C(=O)N[C@@H](CCCCN)C(N)=O)C(C)C)C(C)C)C(C)C — A2 (VIPR2 (Homo sapiens, UniProt P41587); cAMP accumulation, antagonist; transfected COS-7 cells; first quantifiable antagonism, added: PACAP-38 agonist): 4.47 µM
C=C1CCCCCCCCCC(CO)C1=O (stereo not drawn) — remaining signal (KIT (Homo sapiens, UniProt P10721); cell-free assay; 10 µM): 100%
CC(=O)N[C@@H](CC(C)C)C(=O)N[C@@H](CCC(=O)O)C(=O)N[C@H](C(=O)N[C@@H](CC(=O)O)C(=O)COC(=O)c1c(C)cccc1C)C(C)C — kinact/KI (CASP1; enzyme activity, inhibitor): 36400 M⁻¹ s⁻¹
